Published values pooled from the literature.
Lines come from different studies, so protocols differ. ± gives the spread as reported.

CC(=O)[C@H]1CC[C@H]2[C@@H]3CCC4=CC(=O)CC[C@]4(C)[C@H]3CC[C@]12C  thermodynamic solubility (shake-flask; Captex 355; 37 °C): 36.9 ± 1.15 mg/g
Cc1cc(Nc2cc3ncccc3c(N[C@@H]3C[C@H]4CC[C@@H](C3)N4CCC#N)n2)n[nH]1  AUC(0-24 h) (dog, male, plasma; oral, 100 mg/kg/day, week 28 day 197, 39-week repeat dose; mean): 1670 ng·h/mL
Nc1ncn([C@H]2C[C@H](O)[C@@H](CO)O2)c(=O)n1  AUC(0-180) (male CD-1 mice, plasma; oral, 167 mg/kg THU + 0.2 mg/kg, day 1): 1.43 µM·h
CS(=O)(=O)n1cc2c(n1)CN([C@H]1CO[C@H](c3cc(F)ccc3F)[C@@H](N)C1)C2  renal clearance (male human, urine; oral, 25 mg, single dose, fasted, healthy volunteers): 36.7 mL/min
C=CC(N)CCC(=O)O (stereo not drawn)  Tmax (median) (male Sprague-Dawley rat, plasma; oral, 10 mg/kg, formulation 10, together with: Sar 200 mg/kg): 40.2 min
Cc1ccc(N2C(=O)c3ccccc3NC23C(=O)N(C)c2ccc([N+](=O)[O-])cc23)cc1 (stereo not drawn)  logD (shake flask; aqueous buffer; pH 7.4): 2.7
Cc1nc2cccc(OCC(C)(C)C(=O)NC(C)C)c2c(N)c1C(=O)O  Cmax (male Sprague-Dawley rat, plasma; dietary, 100 mg/kg/day, day 7): 79.2 ng/mL
C/C=C/C=C/C=C\CC/C=C/C(=O)NCC(C)(C)O  recovery (rat, small intestine site 4 contents; oral, dose not given, 4 h, β-glucuronidase treated; relative to: ingested amount): 0.04%
CCc1oc2ccccc2c1C(=O)c1cc(Br)c(O)c(Br)c1  fraction absorbed (male Sprague-Dawley rats, whole blood; oral capsule, 15.2 to 17.2 mg/kg; relative to: intravenous 0.5 mg/kg): 0.58
CC[C@@H]1C(=O)N(C)c2cnc(Nc3ccc(C(=O)N[C@H]4CC[C@H](N5CCN(CC6CC6)CC5)CC4)cc3OC)nc2N1C(C)C  Cmax geometric mean (human, plasma; intravenous infusion, 250 mg over 2 h, first infusion): 540 ng/mL
C#C[C@]1(O)CC[C@H]2[C@@H]3CCc4cc(O)ccc4[C@H]3CC[C@@]21C  thermodynamic solubility (shake-flask; polysorbate 80; 37 °C): ≥ 99.4 mg/g
O=C1C[C@@H](c2ccc(O)cc2)Oc2cc(O)cc(O)c21  Papp A→B (mass spectrometry; Caco-2; 40 µM, 6 h): 12.6 ×10⁻⁶ cm/s
COc1ccc2nc([S@@+]([O-])Cc3ncc(C)c(OC)c3C)[nH]c2c1  adverse events (human healthy; 40 mg, menstruation delayed): 0%
O=C1Cc2cc(CCN3CCN(c4nsc5ccccc45)CC3)c(Cl)cc2N1  QTc change (male Hartley guinea pig, anaesthetized; intravenous infusion, 0.1 mg/kg, 10 min infusion; relative to: baseline): 4.9 ± 2%
C[C@H]1Oc2cc(cnc2N)-c2c(nn(C)c2C#N)CN(C)C(=O)c2ccc(F)cc21  initial clearance (human (NSCLC and healthy); oral and intravenous, 100 mg, PopPK, 70 kg subject): 151 mL/min
N[C@@H](CC(=O)N1CCn2c(nnc2C(F)(F)F)C1)Cc1cc(F)c(F)cc1F  log AUC(0-24h) (adult UCB transplant recipients, plasma; oral, 600 mg four times, observed median): 9.23 ng·h/mL
Cn1c(-c2ccc(C(N)=O)cc2F)nnc1C(C)(C)Oc1c(F)cc(Cl)cc1F  AUC(0-inf) mean (young Japanese subjects, plasma; oral, 20 mg single dose, day 1): 2150 ng·h/mL
CCOC(=O)C1=C(C)NC(C)=C(C(=O)OC)C1c1cccc(Cl)c1Cl (stereo not drawn)  thermodynamic solubility (shake-flask; Captex 355; 37 °C): 26.4 ± 1.75 mg/g

Excerpt of the above:
Cc1nc2cccc(OCC(C)(C)C(=O)NC(C)C)c2c(N)c1C(=O)O  Cmax (male Sprague-Dawley rat, plasma; dietary, 100 mg/kg/day, day 7): 79.2 ng/mL
